Results from different studies.
“And” joins repeats or separate records; there may be more than shown. ± gives the spread as reported.
T1: RNA aptamer; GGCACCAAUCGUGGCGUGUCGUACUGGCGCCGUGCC

SMILES	tested on	assay	test system	setting	scale	endpoint	value
NC(=O)C1=CN([C@@H]2O[C@H](COP(=O)(O)OP(=O)(O)OC[C@H]3O[C@@H](n4cnc5c(N)ncnc54)[C@H](O)[C@@H]3O)[C@@H](O)[C@H]2O)C=CC1	FSP1	oxidase activity, substrate, nitroblue tetrazolium superoxide	–	together with: atmospheric O2	–	Km	18 ± 5.6 µM
NCCCS(=O)(=O)O	SLC6A6 (Homo sapiens, UniProt P31641, G62A)	binding, microscale thermophoresis	–	1.95 µM, room temperature, together with: 50 nM labelled protein	higher = more binding	normalised MST signal	-0.0122
CN(CCO)c1ccc(/C=C(\C#N)c2ccc(C#N)cc2)cc1	T1, RNA aptamer	fluorescence titration	–	–	–	binding	no binding
CCOc1nc2cccc(C(=O)OC(C)OC(=O)OC3CCCCC3)c2n1Cc1ccc(-c2ccccc2-c2nnn[nH]2)cc1 (stereo not drawn)	Nedd8-cullin1 interaction	neddylation, AlphaScreen	–	100 µM	–	inhibition	105%
CC1(C)CC2(C)OC(=O)NC2(C)c2ccccc21 (stereo not drawn)	WD repeat-containing protein 55 (WDR55, Homo sapiens, UniProt Q9H6Y2)	binding, affinity selection mass spectrometry	–	–	reference: other proteins in batch	fold enrichment	0.854
CC[C@@H]1[C@H](F)C(=O)N[C@@H]1COc1nccc2cc(C(N)=O)c(OC)cc12	FER (Homo sapiens, UniProt P16591)	ATP-site probe binding, ActivX profiling	THP-1 cell lysate	0.04 mM, Lys1 site	–	inhibition	0.757%
N#Cc1ccc2[nH]cc(CCCCN3CCN(c4ccc5oc(C(N)=O)cc5c4)CC3)c2c1	SLC6A4 (Homo sapiens, UniProt P31645, R104K)	[3H]5-HT uptake, inhibitor	COS-7	–	–	Hill coefficient	1.43 ± 0.2
CC1CCCN(C(=O)c2cc3ncccn3n2)C1 (stereo not drawn)	STUB1 (Homo sapiens, UniProt Q9UNE7)	binding, affinity selection mass spectrometry	–	–	reference: other proteins in batch	log fold enrichment	0.271
O=c1cc(N2CCN(Cc3cccc4ccccc34)CC2)[nH]c(=O)[nH]1	GPR84 (Homo sapiens, UniProt Q9NQS5)	cAMP level, agonist	human cells	–	–	EC50	151 ± 44 nM
Clc1cccc(OC[C@@H]2CN(CCN3CCc4ccccc43)CCO2)c1	HTR7 (Homo sapiens, UniProt P34969)	radioligand binding	–	concentration not given, together with: [3H]LSD	–	inhibition	25.9%
CC1=C(Cc2cn(CC#N)nn2)C(=O)c2ccccc2C1=O	Schistosoma mansoni	–	adult worms	10 µM, 48 h	–	killing	43.5%
COc1ccc(N2Cc3ccc(O)cc3OC2=O)cc1OC	MIF (Homo sapiens, UniProt P14174)	inhibitor, ELISA	–	up to 50 µM	–	binding inhibition	no inhibition
Nc1ncnc2c1ncn2[C@@H]1O[C@H](COP(=O)(O)CP(=O)(O)OP(=O)(O)O)[C@@H](O)[C@H]1O	P2X purinoceptor 1 (P2RX1, Homo sapiens, UniProt P51575, D97A)	calcium influx	–	1 µM	reference: ionomycin response	calcium influx	78.1% and 92.3% and 88.8% and 59.8%
CCCCCCCC/C=C\CCCCCCCC(=O)NCCc1ccc(O)c(O)c1	Trpv1 (Mus musculus, UniProt Q704Y3, T557S)	ion current, agonist, whole-cell patch clamp	–	T557S	reference: 3 mM 2-APB	maximal open probability	0.37 ± 0.14
COc1ccccc1N1CCN(CCCCN2CCc3ccccc3C2=O)CC1	HTR2A (Homo sapiens, UniProt P28223)	radioligand binding	–	concentration not given, together with: [3H]ketanserin	–	inhibition	91.5%
O=C(Nc1nc2cccc(-c3ccc(CN4CCS(=O)(=O)CC4)cc3)n2n1)C1CC1	–	–	rheumatoid arthritis patients	oral, 30 mg once daily, 4 weeks, TEAE regardless of relatedness	–	incidence of gastritis	5.9%
O=C(O)[C@H]1O[C@@H](Oc2cc(-c3oc4cc(O)cc(O)c4c(=O)c3O)ccc2O)[C@H](O)[C@@H](O)[C@@H]1O	UGT1A1 (Homo sapiens, UniProt P22309)	glucuronidation, substrate	Supersomes	–	–	Vmax	1.77 ± 0.71 nmol/mg/min
Nc1nc2c(ncn2[C@@H]2O[C@H](COP(=O)(O)O)[C@@H](O)[C@H]2O)c(=O)[nH]1	GUK1 (Homo sapiens, UniProt Q16774, D103A)	enzyme activity, NADH-coupled	–	15.62 µM	–	reaction rate	1.97 s⁻¹ and 1.94 s⁻¹ and 3.34 s⁻¹
Nc1ccc2cc3ccc(N)cc3nc2c1	Chymotrypsinogen A, activated (alpha-chymotrypsin) (Bos taurus, UniProt P00766)	isothermal titration calorimetry	–	concentration not given, 25 °C, together with: 0.5 M N,N-dimethylglycine	–	entropic contribution to binding	-62.7 ± 5.9 kJ/mol
CCOc1ccc(C2c3c(oc4ccc(C)cc4c3=O)C(=O)N2CCCN(C)C)cc1OC (stereo not drawn)	GHSR (Homo sapiens, UniProt Q92847)	intracellular calcium mobilization	HEK293 cells stably expressing receptor	concentration not given, pure resynthesized compound	–	activity	inactive
NCCCCC(=O)O	SLC6A6 (Homo sapiens, UniProt P31641, Y138A)	binding, microscale thermophoresis	–	488 nM, room temperature, together with: 50 nM labelled protein	higher = more binding	normalised MST signal	0.0186

SMILES	tested on	assay	test system	setting	scale	endpoint	value
CO[C@H]1O[C@H](COS(=O)(=O)O)[C@@H](O[C@@H]2O[C@@H](C(=O)O)[C@@H](O[C@H]3O[C@H](COS(=O)(=O)O)[C@@H](O[C@@H]4O[C@H](C(=O)O)[C@@H](O[C@H]5O[C@H](COS(=O)(=O)O)[C@@H](O)[C@H](O)[C@H]5NS(=O)(=O)O)[C@H](O)[C@H]4O)[C@H](OS(=O)(=O)O)[C@H]3NS(=O)(=O)O)[C@H](O)[C@H]2OS(=O)(=O)O)[C@H](O)[C@H]1NS(=O)(=O)O	Beta-2-glycoprotein 1, domain V (APOH, Homo sapiens, UniProt P02749, V266L)	isothermal titration calorimetry	–	298 K, together with: 100 mM NaCl	–	entropic contribution TΔS	-474 cal/mol
O=C1Nc2c(ccc(Cl)c2Cl)C1=NO	KCNN4/CALM1 (Homo sapiens, UniProt O15554+P0DP23, A279G)	whole-cell patch clamp	A279G mutant	10 µM, together with: calcium 250 nM	–	current	no effect
CC(Oc1ccccc1)C(=O)NCc1ccccn1 (stereo not drawn)	RFWD3 (Homo sapiens, UniProt Q6PCD5)	binding, affinity selection mass spectrometry	–	–	reference: other proteins in batch	fold enrichment	0.748
CC[N+](CC)(CC)CCOc1cccc(OCC[N+](CC)(CC)CC)c1OCC[N+](CC)(CC)CC	TDP1 (Homo sapiens, UniProt Q9NUW8)	binding, small molecule microarray	–	together with: AF647-labelled TDP1 1 µM	direction not given	Z score	3.65
CC(C)c1noc2ncc(C(=O)c3ccccc3O)cc12	OTOP1 (Homo sapiens, UniProt Q7RTM1)	proton current, potentiator, whole-cell patch-clamp	HEK-293T	10 µM, pH 5.5	reference: current before compound	current potentiation	1.63 fold
Cc1cccc(N2CC(C(=O)O)CC2=O)c1 (stereo not drawn)	Baculoviral IAP repeat-containing protein 3, BIR1 domain (BIRC3, Homo sapiens, UniProt Q13489)	binding, affinity selection mass spectrometry	–	–	reference: other proteins in batch	fold enrichment	0.986
Nc1ccc(C(=O)O)cc1	BEST1, with wild-type BEST1 (Homo sapiens, UniProt O76090, Q293K)	ion current, whole-cell patch clamp	HEK293 co-expressing mutant and wild-type	concentration not given, voltage 20 mV	–	current density	3.87 pA/pF and 2.44 pA/pF and 1.54 pA/pF and 3.16 pA/pF and 7.66 pA/pF and 2.76 pA/pF
CCCCC[C@H](O)/C=C/[C@H]1[C@@H]2CO[C@@H](C2)[C@@H]1C/C=C\CCCC(=O)O	TBXA2R (Homo sapiens, UniProt P21731)	radioligand binding, antagonist	–	reference compound	–	Hill coefficient	0.9
CCCCCC(O)C(CC=O)SC[C@H](NC(C)=O)C(=O)O (stereo partly drawn)	N-acyl-aromatic-L-amino acid amidohydrolase (carboxylate-forming) (Acy3, Mus musculus, UniProt Q91XE4)	substrate, fluorescamine	–	together with: Co2+ 0.1 mM	–	kcat	1.67 s⁻¹
Nc1ncnc2c1ncn2[C@@H]1O[C@H](COP(=O)(O)OP(=O)(O)OP(=O)(O)O)[C@@H](O)[C@H]1O	P2X purinoceptor 7 (P2rx7, Rattus norvegicus, UniProt Q64663, I214A)	ion current, agonist, two-electrode voltage clamp	Xenopus laevis oocytes	3.7 µM	reference: highest concentration response	normalized current	0.0103 and 0.00978 and 0.0143
COc1cccc(OC[C@@H]2CN(CCN3CCc4ccccc43)CCO2)c1	HTR2C (Homo sapiens, UniProt P28335)	radioligand binding	–	concentration not given, together with: [3H]mesulergine	–	inhibition	78.1%
COc1ccc2cc1Oc1ccc(cc1)C[C@H]1c3c(cc4c(c3Oc3cc5c(cc3OC)CCN(C)[C@@H]5C2)OCO4)CCN1C	Nedd8-cullin1 interaction	neddylation, AlphaScreen	–	100 µM	–	inhibition	19.1%
Cc1cc(Cl)cc(C)c1OCC(=O)NC(C)C	SLC6A19 (Homo sapiens, UniProt Q695T7)	membrane potential, FLIPR membrane potential	CHO-BC cells	concentration not given, first screen	reference: uninhibited control	normalised transport activity	0.897 and 0.932 and 0.925 and 0.889 and 0.951
CCc1oc2c([C@H](CO)N(CC)CC)cccc2c1C	LPAR1 (Homo sapiens, UniProt Q92633, W210A)	Gi activation, agonist, NanoBiT G-protein dissociation	HEK293T	W210A mutant, unit not given	reference: wild type	change in Emax	1.07
Cc1cccc(C[C@H](NC(=O)OCc2ccccc2)C(=O)N[C@@H](CC(C)C)C(=O)N[C@H](B(O)O)C(C)C)c1	Serine protease HTRA1 (Homo sapiens, UniProt Q92743)	enzyme activity, inhibitor	–	–	reference: 5	fold increase in potency	9 fold
COc1cc(O)c2c(c1)oc(=O)c1c3cc(O)c(O)cc3oc21	MAL12 (Saccharomyces cerevisiae S288c, UniProt P53341)	inhibitor, Lineweaver-Burk plot	–	enzyme-substrate complex binding	–	Kis	0.11 mM
C1=C/COCc2cc(ccc2OCCN2CCCC2)Nc2nccc(n2)-c2cccc(c2)COC/1	PIKFYVE (Homo sapiens, UniProt Q9Y2I7)	–	–	concentration not given	–	percent of control	17%
O=C(COP(=O)(O)O)[C@@H](O)[C@H](O)[C@H](O)COP(=O)(O)O	Long-chain-fatty-acid--CoA ligase 5 (Homo sapiens, UniProt Q9ULC5)	thermal proteome profiling, refers to: ACSL5	HepG2 cell lysate	concentration not given, 57 over 37 °C	reference: compound over control	thermal stability ratio	0.643 and 0.875 and 0.579
Nc1ncnc2c1ncn2[C@@H]1O[C@H](CO[P@](=O)(O)O[P@](=O)(O)O[P@@](=O)(O)S)[C@@H](O)[C@H]1O	GUK1 (Homo sapiens, UniProt Q16774)	binding, isothermal titration calorimetry	–	molar ratio 0.9041, fitted curve	–	ΔH	-1.12 kcal/mol
N#Cc1ccc2c(-c3ccncc3)c(-c3ccc(F)cc3)nn2c1	Protein kinase C-like 1 (Candida albicans, UniProt P43057)	kinase binding, competitor, MIB/MS competition, refers to: PKC1	Candida albicans cell lysate	10 µM	reference: DMSO	log2 fold change	0.485
C[C@H](O)c1cnc(NS(=O)(=O)c2ccc(C(F)(F)F)c(Cl)c2)nc1	17-beta-hydroxysteroid dehydrogenase 13 (Homo sapiens, UniProt Q7Z5P4)	substrate, NADH fluorescence	–	–	–	Km	29 µM

Some of these lines once more:
SMILES	tested on	assay	test system	setting	scale	endpoint	value
Nc1ncnc2c1ncn2[C@@H]1O[C@H](COP(=O)(O)OP(=O)(O)OP(=O)(O)O)[C@@H](O)[C@H]1O	P2X purinoceptor 7 (P2rx7, Rattus norvegicus, UniProt Q64663, I214A)	ion current, agonist, two-electrode voltage clamp	Xenopus laevis oocytes	3.7 µM	reference: highest concentration response	normalized current	0.0103 and 0.00978 and 0.0143
COc1cc(O)c2c(c1)oc(=O)c1c3cc(O)c(O)cc3oc21	MAL12 (Saccharomyces cerevisiae S288c, UniProt P53341)	inhibitor, Lineweaver-Burk plot	–	enzyme-substrate complex binding	–	Kis	0.11 mM
CC(C)c1noc2ncc(C(=O)c3ccccc3O)cc12	OTOP1 (Homo sapiens, UniProt Q7RTM1)	proton current, potentiator, whole-cell patch-clamp	HEK-293T	10 µM, pH 5.5	reference: current before compound	current potentiation	1.63 fold
Nc1nc2c(ncn2[C@@H]2O[C@H](COP(=O)(O)O)[C@@H](O)[C@H]2O)c(=O)[nH]1	GUK1 (Homo sapiens, UniProt Q16774, D103A)	enzyme activity, NADH-coupled	–	15.62 µM	–	reaction rate	1.97 s⁻¹ and 1.94 s⁻¹ and 3.34 s⁻¹
N#Cc1ccc2c(-c3ccncc3)c(-c3ccc(F)cc3)nn2c1	Protein kinase C-like 1 (Candida albicans, UniProt P43057)	kinase binding, competitor, MIB/MS competition, refers to: PKC1	Candida albicans cell lysate	10 µM	reference: DMSO	log2 fold change	0.485
CN(CCO)c1ccc(/C=C(\C#N)c2ccc(C#N)cc2)cc1	T1, RNA aptamer	fluorescence titration	–	–	–	binding	no binding
